Results pooled from the literature.
Parts stem from different laboratories: compare values within a part only. Substitutions count along the parent as printed.

Series 1 — technique: aptamer microarray, sandwich; molecule type: DNA with 2'F-ANA; medium: in vitro; concentration: 200 nM; with: Cy3 exosite-II aptamer, 400 nM; reading: higher = stronger binding; oligonucleotide: GGTTGGTGTGGTTGG
Target: Prothrombin, mature alpha-thrombin (F2, Homo sapiens, UniProt P00734)
Notes: whole 15-mer aptamer, many near background
| Modification | mean fluorescence intensity |
| --- | --- |
| 2'F-ANA at 4 8 12 | 670 a.u. |
| 2'F-ANA at 6 7 9 12 15 | 694 a.u. |
| 2'F-ANA at 3 6 8 9 10 11 13 | 363 a.u. |
| 2'F-ANA at 2 3 4 6 10 11 13 | 221 a.u. |
| 2'F-ANA at 2 5 6 7 9 10 11 13 15 | 44.3 a.u. |
| 2'F-ANA at 1 2 4 5 8 11 13 14 | 73.2 a.u. |
| 2'F-ANA at 3 4 7 10 11 12 13 14 15 | 204 a.u. |
| 2'F-ANA at 1 8 9 10 12 15 | 72.7 a.u. |
| 2'F-ANA at 3 4 6 7 8 9 10 12 14 | 199 a.u. |
| 2'F-ANA at 1 2 5 8 10 12 15 | 48.8 a.u. |
| 2'F-ANA at 3 4 10 12 13 15 | 311 a.u. |
| 2'F-ANA at 1 2 3 6 8 9 10 11 12 13 14 15 | 60.2 a.u. |
| 2'F-ANA at 2 4 7 14 15 | 134 a.u. |
| 2'F-ANA at 2 3 4 5 8 12 13 | 130 a.u. |
| 2'F-ANA at 3 6 8 9 10 13 14 15 | 341 a.u. |
| 2'F-ANA at 2 3 6 10 11 13 | 302 a.u. |
| 2'F-ANA at 2 3 7 8 9 | 846 a.u. |
| 2'F-ANA at 1 2 4 8 9 12 14 | 73.4 a.u. |
| 2'F-ANA at 1 5 7 11 15 | 50.2 a.u. |
| 2'F-ANA at 1 9 10 13 | 70.1 a.u. |
| 2'F-ANA at 3 5 7 11 12 15 | 171 a.u. |
| 2'F-ANA at 1 3 4 6 7 9 10 11 14 15 | 52.4 a.u. |
| 2'F-ANA at 1 3 8 9 10 12 13 14 | 58.6 a.u. |
| 2'F-ANA at 2 6 9 10 11 12 13 | 130 a.u. |
| 2'F-ANA at 2 4 6 7 8 10 12 14 | 64.7 a.u. |

Series 2 — technique: protein-binding microarray; molecule type: double-stranded DNA, one strand shown; medium: in vitro; concentration: 2540 nM top; notes: 60-bp whole probe; with: salmon DNA 0.4 mg/ml; reference: random background probes; reading: higher = stronger binding; constant ends, left off below: GCCTAGCAC … GTCTTGATTCGCTTGACGCTGCTG
Target: Interferon regulatory factor 3, full length, phosphomimetic (IRF3, Homo sapiens, UniProt Q14653, residues 1-427, S386D/S396D/S398D/S402D/T404D/S405D)
Chain of UniProt Q14653 (whole entry, unmodified, looked up): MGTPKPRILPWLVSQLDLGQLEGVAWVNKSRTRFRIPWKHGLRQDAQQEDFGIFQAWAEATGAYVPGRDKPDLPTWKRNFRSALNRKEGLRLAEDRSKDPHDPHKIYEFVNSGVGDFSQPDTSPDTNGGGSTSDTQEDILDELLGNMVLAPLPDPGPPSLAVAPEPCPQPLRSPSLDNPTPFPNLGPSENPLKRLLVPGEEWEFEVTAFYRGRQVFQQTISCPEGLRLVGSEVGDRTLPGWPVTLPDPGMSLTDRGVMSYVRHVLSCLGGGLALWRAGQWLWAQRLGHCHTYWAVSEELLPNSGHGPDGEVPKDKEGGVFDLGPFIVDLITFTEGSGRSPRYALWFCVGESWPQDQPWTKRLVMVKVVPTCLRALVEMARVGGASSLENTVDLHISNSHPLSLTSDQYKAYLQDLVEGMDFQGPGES
| Oligonucleotide | fitted relative affinity |
| --- | --- |
| TTTGCTTTCTTTTTGCACTCGTGCTAG | 2.96 z-score |
| TTAGGACTGGTTCTCCTTTAGTGCTAG | 0.713 z-score |
| CAACTTTTTTTAATTGAGAAGTGCTAG | 1.05 z-score |
| TTAGCTTTCGGGTATCGGTTAGTGCTA | 2.2 z-score |
| GACCGTATCGGTCTCGGGACGTGCTAG | 4.86 z-score |
| GACGGTATCGACTATCGAGACGTGCTA | 0.702 z-score |
| TCAGGTCTCGGTCTCGGTTAGTGCTAG | 1.84 z-score |
| GACGATTCCAGTTTCGTGACGTGCTAG | 2.56 z-score |
| GACGAATTCAGTATCGAGACGTGCTAG | 1.18 z-score |
| TCATGCTTGGGTCTGGGACTGTGCTAG | -0.988 z-score |
| AACGGTATCCTACTGCTGACGTGCTAG | 2.71 z-score |
| GACGGTATCGGATATCGGGACGTGCTA | 2.87 z-score |

Series 3 — technique: universal PBM; molecule type: double-stranded DNA, one strand shown; medium: in vitro; concentration: not given; reading: higher = stronger binding
Target: Sal-like protein 4, full length isoform B (SALL4, Homo sapiens, UniProt Q9UJQ4-2, residues 1-616)
Notes: 8-mer, flanks averaged, mean of replicates
Construct (chain): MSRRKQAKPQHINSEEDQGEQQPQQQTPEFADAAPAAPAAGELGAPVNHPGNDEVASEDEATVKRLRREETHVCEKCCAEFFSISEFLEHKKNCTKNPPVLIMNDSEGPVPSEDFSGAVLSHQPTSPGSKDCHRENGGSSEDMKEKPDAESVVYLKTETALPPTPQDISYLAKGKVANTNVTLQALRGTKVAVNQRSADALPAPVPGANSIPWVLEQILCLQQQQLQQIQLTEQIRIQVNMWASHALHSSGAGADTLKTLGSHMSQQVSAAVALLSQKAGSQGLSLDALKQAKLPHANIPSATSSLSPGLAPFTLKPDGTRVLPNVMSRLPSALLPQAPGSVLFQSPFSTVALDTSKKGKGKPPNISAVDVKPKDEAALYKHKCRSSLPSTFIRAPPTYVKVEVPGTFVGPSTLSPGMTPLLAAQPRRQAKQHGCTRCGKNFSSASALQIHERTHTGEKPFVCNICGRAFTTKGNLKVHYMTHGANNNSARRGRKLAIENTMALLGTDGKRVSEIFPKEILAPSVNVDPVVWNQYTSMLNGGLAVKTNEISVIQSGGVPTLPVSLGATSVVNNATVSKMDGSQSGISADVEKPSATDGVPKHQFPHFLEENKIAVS
| Oligonucleotide | E-score |
| --- | --- |
| GGCTGATA | -0.00583 |
| TAAGCGGA | -0.0649 |
| ACTACACT | 0.133 |
| CCTTAACA | 0.157 |
| AGAGAACG | 0.0172 |
| GCCGTGAC | -0.0557 |
| CTCACACC | -0.152 |
| TAGTACAA | 0.189 |
| CCGAACTC | -0.217 |
| CCCGGGCA | -0.253 |
| AGTTGTAA | 0.0717 |
| GGCGTAGA | -0.0689 |
| ATAGGTAC | 0.164 |
| AGCCAGAC | -0.232 |
| TGGTCGAA | -0.118 |
| ATATACTG | 0.231 |
| GTGCTACA | 0.125 |
| AATAGGGA | 0.0517 |
| AAAGCCTA | 0.0471 |
| ACCAAATA | 0.29 |

Series 4 — target: CCNF, cyclin fold, Cln2 fusion (human); technique: yeast growth competition, sequencing; medium: yeast; notes: strong parent motif; reference: not given; reading: higher = stronger binding
Starting sequence: RB1 docking peptide (human); PKPLKKLRFDIEG
| Substitution | normalised enrichment score |
| --- | --- |
| L7R | 0.872 |
| I11R | 0.00129 |
| L7H | 0.892 |
| E12I | 2.63 |
| L4W | 1.89 |
| R8W | 1.37 |
| L7D | -0.529 |
| R8F | 2.39 |
| D10Q | 1.26 |
| E12L | 1.88 |
| K6N | 0.378 |
| G13A | 2.14 |
| P3Q | 0.989 |
| K6R | 1.33 |
| K6M | 1.1 |
| P3M | 1.08 |

Series 5 — technique: DHFR PCA, deep sequencing; medium: yeast; with: (+)-ABA 0.0091 µM; reference: wild-type fitted maximum; reading: higher = stronger binding
Target: ABI1, truncated, D143A, DHFR fusion (Arabidopsis thaliana)
Notes: methotrexate growth selection, single substitutions
Starting sequence: PYL1, truncated, DHFR fusion (Arabidopsis thaliana); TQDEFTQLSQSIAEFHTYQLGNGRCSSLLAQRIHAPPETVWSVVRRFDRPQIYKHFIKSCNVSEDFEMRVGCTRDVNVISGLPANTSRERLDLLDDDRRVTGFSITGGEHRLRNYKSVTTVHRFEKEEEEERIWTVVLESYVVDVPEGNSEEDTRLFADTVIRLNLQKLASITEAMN; partner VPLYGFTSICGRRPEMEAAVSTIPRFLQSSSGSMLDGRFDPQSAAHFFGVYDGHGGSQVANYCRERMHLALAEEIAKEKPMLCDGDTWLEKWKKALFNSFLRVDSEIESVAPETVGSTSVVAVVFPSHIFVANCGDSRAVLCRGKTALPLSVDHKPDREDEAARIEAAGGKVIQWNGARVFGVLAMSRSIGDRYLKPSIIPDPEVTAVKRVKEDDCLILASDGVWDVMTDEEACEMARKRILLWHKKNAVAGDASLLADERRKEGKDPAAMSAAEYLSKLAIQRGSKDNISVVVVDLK
| Substitution | relative binding score [%] |
| --- | --- |
| E64Q | 28.9 |
| S87V | 65.8 |
| N85S | 56.8 |
| D95L | -4.86 |
| W41M | 0.434 |
| I133M | 23.8 |
| V70A | -1.57 |
| K58F | -0.411 |
| D153E | 15.7 |
| P146M | 29.5 |
| M176P | 2.91 |

Series 6 — technique: competition protein-binding microarray; molecule type: double-stranded DNA, one strand shown; medium: in vitro; concentration: 2 µM; with: Cbf1 competitor, 0.05 µM; reading: higher = stronger binding; constant ends, left off below: … GTCTTGATTCGCTTGACGCTGCTG
Target: Phosphate system positive regulatory protein PHO4, full length, GST-tagged (PHO4, Saccharomyces cerevisiae, UniProt P07270, residues 1-312)
Notes: whole 60-bp probe, lowest competitor level
Residues (chain): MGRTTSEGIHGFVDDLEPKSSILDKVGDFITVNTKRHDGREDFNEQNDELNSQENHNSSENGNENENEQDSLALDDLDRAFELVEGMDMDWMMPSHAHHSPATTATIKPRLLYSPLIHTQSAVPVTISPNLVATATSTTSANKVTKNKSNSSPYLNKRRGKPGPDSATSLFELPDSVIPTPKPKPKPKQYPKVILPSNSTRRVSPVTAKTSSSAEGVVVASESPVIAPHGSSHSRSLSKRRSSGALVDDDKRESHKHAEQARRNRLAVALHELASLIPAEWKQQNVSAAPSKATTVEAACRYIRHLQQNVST
| Oligonucleotide | fluorescence intensity |
| --- | --- |
| GGTAGTAGAACCCGTCACGTCATTACTTGATGTTGC | 5240 a.u. |
| CGTCCTAGTGATTTTCACGTGAGATCCATGAGGAAG | 10100 a.u. |
| AATTGGAAAGGCCTTCACATGGTGATCCATCTTCTA | 5340 a.u. |
| TAATAAAAATGTTACCACGTTATCAGGGTTTTCATG | 10000 a.u. |
| TGTCCCAATCTAACACACATGAGTCGTCGAACGCCA | 6000 a.u. |
| CCGCTTTGGAATTTATTCGTGCCGAAAAGACTCAAG | 4150 a.u. |
| CCGCTCGCCCATTCGCACATGGCTTCTCAAGGATCG | 9120 a.u. |
| GTCTATAAATGCTGGCACGTGCGATCATCGCGGCGG | 19100 a.u. |
| GCACAAGGAATTGCTGGCGTGCTAATTCTCGACCTT | 5850 a.u. |
| TGCGCAACAACTTGTTGCGTGGGTGTATGTCTAGAA | 6640 a.u. |
| AAATGTTGCTGCATAACCGTGCGATAAAACCTCATA | 7530 a.u. |
| GTCTTGTCTCATTGTCACTACACTTTCCCCACTTCA | 4050 a.u. |
| CGTAAACCTGACACCCTCGTGGGAGGAGCGCGCCCC | 12700 a.u. |
| CTTCTGTAAATTTGCGGGGTGGGTGGACGCGCCCCG | 5590 a.u. |
| CGCCCGACGTCATTCCTCGTGATGGCTTCTGTTGTT | 7340 a.u. |
| CATACCCAACCTTGTCACCTTACTTAAGATATTTGT | 3850 a.u. |
| ATTAAGATCAATCGGCACGTGCTTTTTTCGAACATC | 20900 a.u. |
| AGCAGCAGAGTCATCTTCGTGCTAAACAGTTGGTAC | 7010 a.u. |
| CAAGTCAAGTTTCAACACGTAGTCTTGAACAGTGGG | 6450 a.u. |

Series 7 — technique: protein binding microarray; molecule type: double-stranded DNA, one strand shown; medium: in vitro; concentration: not given; reference: not given; reading: higher = stronger binding
Target: Histone acetyltransferase KAT6A, both winged helices, GST fusion (KAT6A, Homo sapiens, UniProt Q92794, residues 1-181)
Notes: 8-mer, flanks averaged, mean of 2 arrays, mostly near background
Residues (chain): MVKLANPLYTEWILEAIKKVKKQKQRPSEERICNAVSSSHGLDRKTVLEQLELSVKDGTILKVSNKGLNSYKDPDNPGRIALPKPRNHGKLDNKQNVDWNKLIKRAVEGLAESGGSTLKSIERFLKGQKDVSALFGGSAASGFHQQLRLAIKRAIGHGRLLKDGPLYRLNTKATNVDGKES
| Oligonucleotide | E-score |
| --- | --- |
| ATCAACTG | -0.16 |
| ATTGTATG | -0.17 |
| AAAAGGAA | -0.148 |
| CCTGTAGC | -0.107 |
| AAATCGAT | -0.0596 |
| ACCTCAGG | -0.152 |
| AGAGAGAA | -0.192 |
| ACTGTAAT | -0.0661 |
| ACGCGTTA | 0.274 |

Repeated from above (series 1):
| Modification | mean fluorescence intensity |
| --- | --- |
| 2'F-ANA at 6 7 9 12 15 | 694 a.u. |
| 2'F-ANA at 3 6 8 9 10 11 13 | 363 a.u. |
| 2'F-ANA at 2 3 4 6 10 11 13 | 221 a.u. |
| 2'F-ANA at 2 5 6 7 9 10 11 13 15 | 44.3 a.u. |
| 2'F-ANA at 1 2 4 5 8 11 13 14 | 73.2 a.u. |
| 2'F-ANA at 3 4 7 10 11 12 13 14 15 | 204 a.u. |
